Values quoted from earlier work, collected from citations in different studies.
Each numbered part shows a few of the values that one paper quotes.
Sequence of UniProt P05177 (whole entry, looked up): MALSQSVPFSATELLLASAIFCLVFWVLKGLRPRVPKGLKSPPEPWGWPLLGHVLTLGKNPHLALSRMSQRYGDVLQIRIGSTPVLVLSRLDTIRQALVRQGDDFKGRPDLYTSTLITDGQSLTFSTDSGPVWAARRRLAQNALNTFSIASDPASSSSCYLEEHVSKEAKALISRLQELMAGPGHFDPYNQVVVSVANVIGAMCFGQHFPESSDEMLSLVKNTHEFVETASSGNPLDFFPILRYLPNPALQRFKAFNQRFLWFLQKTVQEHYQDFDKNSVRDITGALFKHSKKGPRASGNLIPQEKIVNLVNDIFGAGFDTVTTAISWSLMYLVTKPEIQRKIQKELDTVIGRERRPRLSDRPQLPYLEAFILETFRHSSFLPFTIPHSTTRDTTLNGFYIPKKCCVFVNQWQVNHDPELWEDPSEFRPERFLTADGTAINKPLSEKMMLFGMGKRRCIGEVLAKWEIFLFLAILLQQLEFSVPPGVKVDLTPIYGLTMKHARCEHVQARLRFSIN

Study 1 — organism: Plasmodium falciparum; tested at: concentration not given
For O=C(c1ccc(OCCN2CCCCC2)cc1)c1c(-c2ccc(O)cc2)sc2cc(O)ccc12, activity read “active”.
For CN(C)CCCC1(c2ccc(F)cc2)OCc2cc(C#N)ccc21 (centres unmarked), activity read “active”.
O=C1CN(/N=C/c2ccc(-c3ccc([N+](=O)[O-])cc3)o2)C(O)=N1: activity “active”.
For CCOC(=O)C1=C(C)NC(C)=C(C(=O)OC)C1c1cccc(Cl)c1Cl (centres unmarked), activity read “active”.
Under activity, CC(C)c1ccc2c(c1)c(SC(C)(C)C)c(CC(C)(C)C(=O)O)n2Cc1ccc(Cl)cc1 is recorded as “active”.
COc1ccc(Cl)cc1C(=O)NCCc1ccc(S(=O)(=O)NC(=O)NC2CCCCC2)cc1: activity “active”.
Under activity, NS(=O)(=O)c1cc(C(=O)O)c(NCc2ccco2)cc1Cl is recorded as “active”.
For C[C@H]1[C@H](OC(=O)CCC(=O)O)O[C@@H]2O[C@@]3(C)CC[C@H]4[C@H](C)CC[C@@H]1[C@@]24OO3, activity read “active”.
Under activity, CN(C)CCOC(C)(c1ccccc1)c1ccccn1 (centres unmarked) is recorded as “active”.
CCCCc1oc2ccccc2c1C(=O)c1cc(I)c(OCCN(CC)CC)c(I)c1 — result for activity: “active”.
Under activity, CNCCC(Oc1ccc(C(F)(F)F)cc1)c1ccccc1.Cl (centres unmarked) is recorded as “active”.
Under activity, Oc1c(Cl)cc(Cl)c(Cl)c1Cc1c(O)c(Cl)cc(Cl)c1Cl is recorded as “active”.
CC(C)(C)NC[C@H](O)COc1nsnc1N1CCOCC1: activity “active”.
Nc1nc(N)c2nc(-c3ccccc3)c(N)nc2n1: activity “active”.
CCCC1O[C@@H]2C[C@H]3[C@@H]4CCC5=CC(=O)C=C[C@]5(C)[C@H]4[C@@H](O)C[C@]3(C)[C@]2(C(=O)CO)O1 (some centres unmarked): activity “active”.
For Oc1c(Cl)cc(Cl)c2cccnc12, activity read “active”.
For Cc1nc2n(c(=O)c1CCN1CCC(c3noc4cc(F)ccc34)CC1)CCCC2, activity read “active”.
COc1cc2nc(N3CCN(C(=O)c4ccco4)CC3)nc(N)c2cc1OC — result for activity: “active”.
CC(C)NCC(O)c1ccc(O)c(O)c1.Cl (centres unmarked): activity “active”.
Under activity, Oc1ccc(/C=C/c2cc(O)cc(O)c2)cc1 is recorded as “active”.
Under activity, CN1CCC(=C2c3ccccc3C=Cc3ccccc32)CC1 is recorded as “active”.
For CN(C)CCC(c1ccc(Cl)cc1)c1ccccn1 (centres unmarked), activity read “active”.
CC(CN1c2ccccc2Sc2ccccc21)N(C)C.Cl (centres unmarked): activity “active”.
CC(C)[N+](C)(CCOC(=O)C1c2ccccc2Oc2ccccc21)C(C)C — result for activity: “active”.
COc1ccc([C@@H]2Sc3ccccc3N(CCN(C)C)C(=O)[C@@H]2OC(C)=O)cc1 — result for activity: “active”.

Study 2 — target: CCR1; method: biochemical
The IC50 of CCOc1cc(N2C3COCC2CN(C(=O)[C@H]2C[C@H](O)CN2c2ccc(Cl)cc2)C3)ccc1Cl is reported as 3 nM.
With O=C([C@H]1C[C@H](O)CN1c1ccc(Cl)cc1)N1CC2COCC(C1)N2Cc1ccc(Cl)cc1 the IC50 was 1200 nM.
With CS(=O)(=O)NCC[C@H](NC(=O)c1cncc2c1cnn2-c1ccc(F)cc1)c1ccnc(S(C)(=O)=O)c1 the IC50 was over 3000 nM.

Study 3 — Compound: CN(C)CC/C=C1/c2ccccc2Sc2ccc(Cl)cc21; cell line: MCF7; method: microarray; tested at: concentration not given; reference: DMSO
item: SLC38A2 mRNA — “log2 fold change”: 1.22.
It gave 2.36 for “log2 fold change” (item: TSC22D3 mRNA).
item: TNFAIP3 mRNA — “log2 fold change”: 3.47.

Study 4 — target: dopamine D2 receptor; effect on: binding
CN(C)C(=O)N[C@H]1CC[C@H](CCN2CCN(c3cccc(Cl)c3Cl)CC2)CC1 gave a Ki of 0.642 nM.
CN(C)CCC=C1c2ccccc2CCc2ccccc21 has a Ki of 266 nM.
CN(C)CCCN1c2ccccc2CCc2ccccc21 gave a Ki of 726 nM.

Further values, each from its own experiment
With Cc1cc(C)c(CNC(=O)c2cc(Cl)c3c(c2C)O[C@@](C)([C@H]2CC[C@H](N(C)C)CC2)O3)c(=O)[nH]1 the IC50 was 18200 nM (P-glycoprotein; digoxin transport, inhibitor; Caco-2 monolayer; with: [3H]digoxin).
c1cnc2cc3c(cc2n1)[C@@H]1CNC[C@H]3C1 has an EC50 of 3000 nM (nicotinic acetylcholine receptor; agonist).
O=c1c(-c2ccc(O)cc2)coc2cc(O)cc(O)c12 gave an EC50 of 300 nM (MCF7; cell proliferation; 5% FBS).
For C[C@@H](Oc1cc(-c2cnn(C3CCNCC3)c2)cnc1N)c1c(Cl)ccc(F)c1Cl, “median duration of response” read 35 weeks (NSCLC patients; dose not given).
For Cn1c(=O)c2[nH]cnc2n(C)c1=O, the Km was 280 to 1230 µM (Cytochrome P450 1A2 (CYP1A2, Homo sapiens, UniProt P05177); substrate).
For O=C(O)C(F)(F)F, the pKa was 0.3 (potentiometry).
With O=c1oc2cc(O)ccc2c2oc3cc(O)ccc3c12 the logP was 2.43.
The exposure increase of Cc1cc(Nc2ncc(Cl)c(Nc3ccccc3S(=O)(=O)C(C)C)n2)c(OC(C)C)cc1C1CCNCC1 is reported as 58% (healthy humans; concentration not given, low-fat snack; reference: fasting).
CC(=O)c1ccc(-c2cccc(NC(=O)CCc3cccc4c3B(O)OC4)c2)cc1 has an IC50 of 21 nM (ovarian cancer cell line; cell proliferation).
For C[C@@H](Oc1cc(-c2cnn(C3CCNCC3)c2)cnc1N)c1c(Cl)ccc(F)c1Cl, the AUCtau was 6990 ng·h/mL (human; 280 mg/m2 twice daily, steady state, mean).
Cc1ncsc1-c1ccc(CNC(=O)[C@@H]2C[C@@H](O)CN2C(=O)[C@@H](NC(=O)CCCCCOC(=O)CC23C[C@H]4C[C@@H](C2)C[C@@H](C3)C4)C(C)(C)C)cc1 — result for “log permeability (Pe)”: -6.7 (PAMPA).
CCS(=O)(=O)O has a pKa of -1.68 (literature value; vs non-fluorinated acids).
Cc1ncsc1-c1ccc(CNC(=O)[C@@H]2C[C@@H](O)CN2C(=O)[C@@H](NC(=O)CCCCCNC(=O)CC23C[C@H]4C[C@@H](C2)C[C@@H](C3)C4)C(C)(C)C)cc1 — result for “log permeability (Pe)”: -5.17 (PAMPA).
With N=C(N)N1CCc2ccccc2C1 the Km was 5.6 µM (CYP2D6; substrate).
For Cc1cc(/C=C/C#N)cc(C)c1Nc1ccnc(Nc2ccc(C#N)cc2)n1, the CC50 was about 5000 nM (MT-4).
Cc1ncsc1-c1ccc(CNC(=O)[C@@H]2C[C@@H](O)CN2C(=O)[C@@H](NC(=O)CCCCCOC(=O)CC(c2ccccc2)c2ccccc2)C(C)(C)C)cc1: “log permeability (Pe)” -6.22 (PAMPA).
